Assay results gathered from unrelated publications.
Each numbered part is a random draw from the data of one study; scales do not carry over between parts. Positions count from the first letter of the parent shown.
Chain of UniProt Q9Y2X8 (whole entry, looked up): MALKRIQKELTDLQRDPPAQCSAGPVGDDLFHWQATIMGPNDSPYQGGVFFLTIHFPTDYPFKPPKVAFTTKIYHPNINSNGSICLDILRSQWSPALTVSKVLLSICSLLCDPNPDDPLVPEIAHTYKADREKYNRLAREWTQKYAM
Chain of UniProt P51668 (whole entry, looked up): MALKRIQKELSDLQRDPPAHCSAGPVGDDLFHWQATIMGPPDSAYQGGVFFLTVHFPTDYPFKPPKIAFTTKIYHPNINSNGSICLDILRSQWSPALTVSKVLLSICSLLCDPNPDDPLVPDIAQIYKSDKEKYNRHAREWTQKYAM
Chain of UniProt P62253 (whole entry, looked up): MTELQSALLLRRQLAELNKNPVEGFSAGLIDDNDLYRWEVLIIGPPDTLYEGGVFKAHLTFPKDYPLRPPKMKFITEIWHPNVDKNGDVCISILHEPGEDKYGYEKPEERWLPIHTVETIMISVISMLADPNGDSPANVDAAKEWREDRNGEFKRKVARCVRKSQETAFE
Chain of UniProt P62837 (whole entry, looked up): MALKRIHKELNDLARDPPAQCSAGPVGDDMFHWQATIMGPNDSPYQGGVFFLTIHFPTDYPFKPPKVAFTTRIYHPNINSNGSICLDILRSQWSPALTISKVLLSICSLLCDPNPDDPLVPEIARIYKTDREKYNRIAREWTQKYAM

Study 1
Target: CCND2, cyclin fold, Cln2 fusion (human)
Method: yeast growth competition, sequencing
Medium: yeast
Notes: strong parent motif
Reference: not given
Reading: higher = stronger binding
Starting sequence: E2F1 docking peptide (human); PPVKRRLDFETDH
| Variant | normalised enrichment score |
| --- | --- |
| PPVKRRLDFEGDH [T11G] | 2.01 |
| PPVKFRLDFETDH [R5F] | 0.455 |
| PPVKRRSDFETDH [L7S] | 0.0889 |
| PPVKRDLDFETDH [R6D] | -0.117 |
| PPVKRRYDFETDH [L7Y] | 0.159 |
| PPVKRRLDFETLH [D12L] | 1.47 |
| PPVKRRLDFETSH [D12S] | 1.73 |
| PPVKRRLDFETAH [D12A] | 1.64 |
| PPVKNRLDFETDH [R5N] | 0.319 |
| PPVKRRLDFETKH [D12K] | 1.3 |
| PPVKRRRDFETDH [L7R] | 0.0381 |
| PEVKRRLDFETDH [P2E] | 1.05 |
| PPVMRRLDFETDH [K4M] | 1.78 |
| PPVKRNLDFETDH [R6N] | 0.231 |

Study 2
Target: Fragile X messenger ribonucleoprotein 1, C-terminal low-complexity region (Fmr1, Mus musculus, UniProt P35922)
Method: RNA Bind-n-Seq
Molecule type: RNA
Medium: in vitro
Tested at: 200 nM
Notes: whole 134-nt RNA, ends assumed
With: 150 mM LiCl
Reference: input library
Reading: higher = stronger binding
Each molecule: 7-deaza-guanosine replaces G
Constant ends, left off below: GGGAGUUCUACAGUCCGACGAUC … UGGAAUUCUCGGGUGUCAAGG
| Oligonucleotide | log2 enrichment |
| --- | --- |
| AAGUCCUGUGCUACACAUCGUAUGUACCGAAUCGGGAAAGGGAAAAAAAGGGAGGGAAAGUAUUAUGUUACGCCGUUCGGAUCUGCACUU | 0.0874 |
| CUCAAGUCCUGUGCUACACAUCGUAUGUACCGAAUCGGUGGUGGAAAAAAAGGAAAGUAUUAUGUUACGCCGUUCGGAUCUGCACUUCCA | 0.383 |
| CUGUGCUACACAUCGUAUGUACCGAAUCGGGGAAAAAGGGGUUUUUUUGGGGAAAAAGGGGAAAGUAUUAUGUUACGCCGUUCGGAUCUG | -1.04 |
| CCUCAAGUCCUGUGCUACACAUCGUAUGUACCGAAUCGGUGGUGGUUUUUGGAAAGUAUUAUGUUACGCCGUUCGGAUCUGCACUUCCAG | 0.0431 |
| CAAGUCCUGUGCUACACAUCGUAUGUACCGAAUCGGAGGUUUUUGGAAAAAAAGGAAAGUAUUAUGUUACGCCGUUCGGAUCUGCACUUC | -0.845 |
| ACCAUGCAGGUGGGCAUCUUUGGGAAGUGGGGCAAGGGGGGGAUAGGGAGGGGGGUAACACUUUGGGAACAGGUGGUCCCCGGUCGUUUC | 1.45 |
| UGGCCCUGGAGGCAUGCGGGGAGGAAGAGGUGGCCUCAUGGAUCGUGGUGGUCCCGGUGGAAUGUUCAGAGGUGGCCGUGGUGGAGACAG | -0.377 |
| GCAGGAAGUAAAAACAAAUGGAAAUGCUUCGGAUAGUGGCAGGGGUGGGGGUUGCUAAGGAAAGGGUGGGAUGGAAAUGGGUAAAGAGUU | 1.84 |
| CACAGACAACACGCACCCACACAAACACAGAGGGAAGGGGUUGGGAUGGGGACAGGGUGCACAGCAGGGCGGGGUAGGACCCCAGCCCCU | 0.01 |
| ACCAUGCAGGUGGGCAUCUUAGGGAAGUGGGGCAAGGGGGGGAUAGGGAGGGGGGUAACACUUUGGGAACAGGUGGUCCCAGGUCGUUUC | 1.37 |
| AAGUCCUGUGCUACACAUCGUAUGUACCGAAUCGGUUUUGGGUUUUGGGUUUUGGGGAAAGUAUUAUGUUACGCCGUUCGGAUCUGCACU | -0.658 |

Study 3
Sequence: B1 (TRIM3 RING domain)
Method: yeast two-hybrid
Medium: yeast
Notes: mostly zero background
Reference: not given
Reading: higher = stronger interaction
B1: TRIM3 RING domain (UniProt O75382); chain VQPMDKQFLVCSICLDRYQCPKVLPCLHTFCERCLQNYIPAQSLTLSCPVCRQTSILPEQGV
| target | lacZ reporter activity |
| --- | --- |
| UBE2D1 UBC core domain (UniProt P51668) | 0 |
| UBE2D4 UBC core domain (UniProt Q9Y2X8) | 0 |
| UBE2G1 UBC core domain (UniProt P62253) | 0 |
| UBE2D2 UBC core domain (UniProt P62837) | 0 |

Study 4
Target: PABPC1L2, full length, GST fusion (mouse, UniProt A0ABA7IW68)
Method: RNAcompete
Molecule type: RNA
Medium: in vitro
Tested at: 20 nM
Notes: 7-mer, probes averaged, single round
Reference: mean of 7-mers
Reading: higher = stronger binding
Construct (chain): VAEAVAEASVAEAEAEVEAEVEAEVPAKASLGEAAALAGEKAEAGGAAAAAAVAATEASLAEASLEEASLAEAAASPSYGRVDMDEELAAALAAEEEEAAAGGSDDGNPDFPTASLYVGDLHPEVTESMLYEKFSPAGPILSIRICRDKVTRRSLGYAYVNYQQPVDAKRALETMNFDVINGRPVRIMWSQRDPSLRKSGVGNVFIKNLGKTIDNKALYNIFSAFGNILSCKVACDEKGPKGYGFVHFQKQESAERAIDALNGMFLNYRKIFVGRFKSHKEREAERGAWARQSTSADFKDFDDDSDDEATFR
| Oligonucleotide | 7-mer Z-score |
| --- | --- |
| GUUAUGC | -0.206 |
| UGCGCUA | -0.135 |
| ACCCACG | -0.264 |
| CUCCGGC | -0.385 |
| UGUUACU | -0.412 |
| AGUGAUG | -0.244 |
| AGACGGU | -0.304 |
| CCCGAUG | -0.26 |
| AGCUAGC | -0.117 |
| CGUAGUU | -0.307 |
| UUACGGU | -0.0881 |
| AUGGCUG | 0.00436 |
| GGUCAGC | -0.117 |
| UUGCGGU | -0.166 |
| CCCGGGG | -0.351 |
| GCUGACC | -0.0301 |
| CUGUUUA | -0.476 |
| GUCGCCG | -0.358 |
| CACCCAG | -0.179 |
| CAUAGAU | -0.00289 |

Study 5
Target: RNA binding protein fox-1 homolog 2, RRM domain, GST-SBP tag (RBFOX2, Homo sapiens, UniProt O43251-10, residues 100-194)
Method: RNA Bind-n-Seq
Molecule type: RNA
Medium: in vitro
Tested at: 365 nM
Notes: natural RNA segment, single round, ends assumed
Reference: no-protein control
Reading: higher = stronger binding
Constant ends, left off below: GGGAGUUCUACAGUCCGACGAUC … UGGAAUUCUCGGGUGCCAA
Construct (chain): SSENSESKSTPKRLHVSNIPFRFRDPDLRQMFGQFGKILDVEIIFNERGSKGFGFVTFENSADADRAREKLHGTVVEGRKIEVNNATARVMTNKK
| Oligonucleotide | RBNS enrichment (R) |
| --- | --- |
| CCUUUGCCUUUCCCGCUCCCACUAUCUGGGCUUUGACUCCAUGGAUAUUAAAAAAGUAGAAUAUUUUGUGUUUAUCUCCCACACAGCCCCAAAUUCUUUUGUUGUGUGUG | 0.927 |
| UUAGUAAUAGAAAUCCAGUAUAUAAUGUAUCAAAUACAAUUGAGGUUCUAACCUAGUGUGUUAAUUUAUCUGAAUUUGGAUUUUUAAAAAGUAAUAAAAAGUUAAAUGUA | 0.482 |
| GUUAUUCCUUCUUUCCAACCAGCUUUGCUCGAGUUAGAAUUUUGUUAUUUUCAAAUAAAAAAUAGUUUGGCCACUUAACAAAUUUGAUUUAUAAAUCUUUCAAAUUAGUU | 1.11 |
| CUGAAGCUGAUGGGCUGCGAACAUGGACUGAGCUUGUGGUGUGCUUUGCAGGAGAACUUGGAAGCAGAGUUCACCAGUGAGCUCAGGUGUCUCAAAGAAGGGUGGAAGUU | 1.04 |
| CCAGGACGACUGUGUCAGCAAAGAGCGCAGCUCCUCCAGGUGACCCAGCAAGGCUGUUGUCUGUAUGGAAGGACACGCUCGCGGCAAGGGCAGGGCCUGGGGAGGGUGGC | 0.321 |
| AGCUCACAAACUCAGUUGGCCCGUGCUCCGUUCACCUGCGAAGGGCAGCCUAAUAUGAAGAUUGAUCCUUCAAUUUUUUUCCUGUUCAUUUUAGUGCUAAAAGGCUUUUA | 0.251 |
| GCGCUGAGGGUGGGUUGGGCAACAGCCUGAGAGUGGACUCAGUGUUGAUUCUCUAUCGUGAUGCGAAAUUGAUGCCUGCUGCUCUACAGAAAAUGCCAACUUGGUUUUUU | 0.638 |
| CUCCCUGGCAUGACCAUCCUGUCCUUUGUUAUUAUCCUGCAUUUUACGUCUUUGGAGGAACAGCUCCCUAGUGGCUUCCUCCGUCUGCAAUGUCCCUUGCACAGCCCACA | 2.12 |
| CCCCCAGCCUGCAGCAGAAGCCUCCACAGUGAGAACUGGACCCAAAGGUAGUGGGGGCCGGUGUGGGGCAGAGUCCUGAAGAGCCACCUCUAGGAGGCAGCCCCUAGGAG | 0.774 |
| UGCCCUCCUGAGCUCCCACCCAGGCAUCUCCAGUGCUCAUGAUCAUGUGUCCCCCAACUCCACCCCUCACAGUUUGGGCCUGUUUCUGGCAAAGAGUCAGGAAGGUUACU | 0.59 |
| UCGUUAAGCUGAACCAGUGUCUUUACAUUUCAUUUGUACUUCAAAAAAUAUGCUAUUGUUUAGACUUUCCAUCCUUUUUUUUUUUAUUUUGAGGAAAAGUCAAAUUCAUU | 1.09 |
| CCCAUUGCCUAUUUGCACCCUAUGCAUGUGGUCAUAUGUAAGCUGGAUCAUCUCCACAGCUGUGACCAGAAAUCCUCACGAAGGGCACAUUUCUAGGUAGACCCAAAUGG | 8.07 |

Some of these lines once more (study 1):
| Variant | normalised enrichment score |
| --- | --- |
| PPVKRRLDFETSH [D12S] | 1.73 |
| PPVKRRLDFETKH [D12K] | 1.3 |
| PPVKRRLDFETLH [D12L] | 1.47 |
| PPVKFRLDFETDH [R5F] | 0.455 |
| PPVKRRLDFETAH [D12A] | 1.64 |
| PEVKRRLDFETDH [P2E] | 1.05 |
| PPVKRNLDFETDH [R6N] | 0.231 |
| PPVKRRRDFETDH [L7R] | 0.0381 |
| PPVKNRLDFETDH [R5N] | 0.319 |
